Results of several laboratories.
Each numbered part is a random draw from the data of one study; scales do not carry over between parts.

Block 1 — technique: universal PBM; form: double-stranded DNA, one strand shown; matrix: in vitro; tested at: not given; reading: higher = stronger binding
Target: Sal-like protein 4, full length isoform B (SALL4, Homo sapiens, UniProt Q9UJQ4-2, residues 1-616)
Setting: 8-mer, flanks averaged, mean of replicates
Oligonucleotide	E-score
CTCCGGAA	-0.131
CATGCTCA	0.0213
ATTCTGGA	0.222
AATACGCA	0.104
TACGGGGA	-0.218
ATGGCCTA	0.0173
ATTGTCCA	0.163
ACAAAGTG	-0.00939
ATGTGAAA	0.261
CGCCACAC	-0.133
GAATTGCC	-0.0187
ATTGAGGA	0.0728
GAAACAAA	0.249

Block 2 — technique: competition protein-binding microarray; form: double-stranded DNA, one strand shown; matrix: in vitro; tested at: 2 µM; added: Pho4 competitor, 0.05 µM; reading: higher = stronger binding; constant ends, left off below: … GTCTTGATTCGCTTGACGCTGCTG
Target: Centromere-binding protein 1, full length, His-tagged (CBF1, Saccharomyces cerevisiae, UniProt P17106, residues 1-351)
Chain of UniProt P17106 (whole entry, looked up): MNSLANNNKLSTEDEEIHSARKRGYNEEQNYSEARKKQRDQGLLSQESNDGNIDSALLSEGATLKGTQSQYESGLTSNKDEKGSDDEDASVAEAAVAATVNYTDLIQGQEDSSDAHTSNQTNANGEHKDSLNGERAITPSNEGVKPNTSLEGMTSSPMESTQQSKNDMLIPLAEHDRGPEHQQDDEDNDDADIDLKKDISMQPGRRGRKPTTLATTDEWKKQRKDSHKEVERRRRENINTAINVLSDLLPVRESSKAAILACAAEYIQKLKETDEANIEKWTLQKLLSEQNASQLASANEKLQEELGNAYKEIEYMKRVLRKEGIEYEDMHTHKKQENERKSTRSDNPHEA
Setting: whole 60-bp probe, lowest competitor level
Oligonucleotide	fluorescence intensity [a.u.]
CATACCCAACCTTGTCACCGAACTTAAGATATTTGT	80.2
GCGGAGGGGGCAGCCCATGTGCTGCGATTCGCTCCC	134
CTAACGAAGGTTTGTCACCCAACTTACAAGCCAAGT	75.5
GTATTGTAAGACTGTCATGTGATTGCTGTCGCGTTC	1420
CATACCCAACCTTGGTGTGTGGGTGAAGATATTTGT	73
CTAACGAAGGTTTGTCGCGTGGGTGACAAGCCAAGT	80.4
TGCTGTAAGCAAAAGCACGGGTGGCCAAAGCAAAGG	74.5
GTAATACATTTTCATCACATGAGAGTGTTCATTCAA	367
TTGCTTTGCAGCGACCACGTGGAACACTTGTCTAGT	1180
AGTGATCTTATCTTCCACATGTCCTTGGCCACTGGC	77.4
AAAGCGGTAATTTGTTTGGTGGGTGCAGATATCTAT	84
AGTGTCTCCTCAGACGACGTGTCGGTTTTGTATATC	70.8
CATACCCAACCTTGGCCGGTGGGTGAAGATATTTGT	58.6

Block 3 — technique: RNA Bind-n-Seq; form: RNA; matrix: in vitro; tested at: 365 nM; baseline: no-protein control; reading: higher = stronger binding
Target: RNA binding protein fox-1 homolog 2, RRM domain, GST-SBP tag (RBFOX2, Homo sapiens, UniProt O43251-10, residues 100-194)
Setting: natural RNA segment, single round, ends assumed
Constant ends, left off below: GGGAGUUCUACAGUCCGACGAUC … UGGAAUUCUCGGGUGCCAA
Construct (chain): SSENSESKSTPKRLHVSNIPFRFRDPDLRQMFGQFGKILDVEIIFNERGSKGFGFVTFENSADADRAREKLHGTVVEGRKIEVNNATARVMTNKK
Oligonucleotide	RBNS enrichment (R)
UCUAUAUAUCUAGCUAACUGACUACCUAUCAUCUACCUACCUACCUGCUGUUAAAUAAAGAAUUUCCUUGUCUGAUUUCCUUUCAAUAAAAGUUUUUCUUUGUUUCAGGU	0.442
GUGGGACUUAGUGGUGAGACACUGGUUGAUCUCUUAGAAGCCCUGGGACACGCCCUCCCUCAUUCAUCUUGCAAGCGAAGCGAAUCCUUUUUCUUGAGAAGCCUCAGAGA	0.571
GACAAGGACAAAAUCAGUUGUAUUUACAAAACUCUUAACUCGGUAUUUUUUUUUUAAACUGAAUCCUGUUUUGUAAAUAAUAUACAUUUAAUGUUGCUUAGCAUAAAAAA	0.856
UUGAGAAAGCAAGAUCUAAUCUGAAAUGGAUGACAUUAACAAGCUCCUUAAGCCCCUGAAGUUUUAUUGCAUCUGCUAGCACUUGAAUGCUGACUGACAGGCAGAUCCUG	2.97
GACAGAGACUUGACUUGAUCCUCUGAGCUCAAGCUAUUGAGCUGGUAGUGGCAGAGGACUGAGGGUACCUGCACAGUUUGAUUCUUUUCCACGUGUAAGUCUCCAUUGCA	2.36
AGCAAGAAGGAAAAGCCAAUGUCUGGUGUCUCUCCCCCCGCCCCUACCCUGCGCGCAUCUAUGUCUUGUUUGGAAUAUUGUCUCUUCAACCCCCUGUUCAUGUCCUUCUC	4.08
CAUUUCCUCUUUCUAGCCGUCCUUUUCUAGUGUGUGCUCACUCUUCCUAGGAACUUUUAAGACUUCUUGGUACCUAUGAACAUAGGUCCUCCCCUCACCCCAACUCUAGG	0.363
CCUGGCGAGGGUUAUGAACCCAGUGUAAGAGACCACCCACCCAGAGCCUCAGCACUGUCUGACUUUGGGAACCAGGGAUCCCACAGAAAUGUUUUGGAGAGCGGGAGGUU	0.309
CAGAUACAUUCUGGCUUAUUUGAGAUACAUGAUUCUCUUAGAAUCCUGUCCCUUGGUUCAGGAAAGUAGCUUGGAAAAGGAGUAGGGGUAUAGCUUGGGUCCCUUUUCCU	0.639
GAGAGGGAGUUGUGGGAAAUAAGAAGAAUGAAAGCCUCUCUUUCUGUCCGCAGAUCCUGACUUUUCCAAAGUGCCUUAAAAGAAAUCAGACAAAUGCCCUGAGUGGUAAC	0.578
AAUUAUAAUUUUCAGUUUCUCCCCAUGAAGCGCUCUCGUCUGACAUUUGUUUGGAAUCGUGCCACUGCUGGUCUGCGCCAGAUGUACCGUCCUUUCCAAUACGAUUUUCU	0.248
AAGUUAAUGUGGGUCACCAUUUUGGUCAGAAGCAUACAUUCCUGUCAGACAACUAGUUGUCUGACAGAAAUGUUAGGCUUCAUGUAUGUUACCCCAGUACUGUUAGAAAC	0.255

Block 4 — technique: protein-binding microarray; form: double-stranded DNA, one strand shown; matrix: in vitro; tested at: 2540 nM top; setting: 60-bp whole probe; added: salmon DNA 0.4 mg/ml; baseline: random background probes; reading: higher = stronger binding; constant ends, left off below: GCCTAGCAC … GTCTTGATTCGCTTGACGCTGCTG
Target: Interferon regulatory factor 3, full length, phosphomimetic (IRF3, Homo sapiens, UniProt Q14653, residues 1-427, S386D/S396D/S398D/S402D/T404D/S405D)
Target sequence (chain): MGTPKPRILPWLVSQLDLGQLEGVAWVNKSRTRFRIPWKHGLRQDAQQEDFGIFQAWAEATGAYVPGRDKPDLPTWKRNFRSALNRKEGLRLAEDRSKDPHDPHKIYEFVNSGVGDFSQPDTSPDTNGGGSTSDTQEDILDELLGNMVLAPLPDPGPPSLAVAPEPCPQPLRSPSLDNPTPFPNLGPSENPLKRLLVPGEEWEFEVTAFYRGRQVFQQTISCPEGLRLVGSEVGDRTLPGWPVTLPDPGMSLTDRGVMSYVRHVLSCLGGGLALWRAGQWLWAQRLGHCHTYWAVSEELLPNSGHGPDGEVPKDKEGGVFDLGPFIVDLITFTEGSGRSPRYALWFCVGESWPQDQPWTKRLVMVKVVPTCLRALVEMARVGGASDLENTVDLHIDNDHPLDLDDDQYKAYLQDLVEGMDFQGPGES
Oligonucleotide	fitted relative affinity [z-score]
GACGCTATCCTACTGCTGACGTGCTAG	0.869
GACGATATCAGTATGGAGACGTGCTAG	0.484
AAAATGATTGGTTGAACATGGTGCTAG	-0.152
TTAGAACTGAGTCTCCATTAGTGCTAG	-0.0268
GACGGACGGCTTTTCCTGACGTGCTAG	-0.504
GACGGCATCGACACTGGGGACGTGCTA	-1.06
AACGGTTTCGGGTATCGGGACGTGCTA	4.64
GACGGACTTCTACTGCTGACGTGCTAG	-0.376
GACGGACGGGACACTGGGGACGTGCTA	-0.613
TTAGGTTTCATTCTCCTTTAGTGCTAG	6.04

Block 5 — technique: RNA Bind-n-Seq; form: RNA; matrix: in vitro; tested at: not given; baseline: input RNA pool; reading: higher = stronger binding
Target: RING finger protein unkempt homolog, zinc fingers 1-6, GST-SBP tag (UNK, Homo sapiens, UniProt Q9C0B0, residues 30-357)
Setting: RNA with constant flanks, human and mouse sites, ends assumed
Constant ends, left off below: GGGAGUUCUACAGUCCGACGAUC … CAACAGAGGAUUGAGCAUCA
Residues (chain): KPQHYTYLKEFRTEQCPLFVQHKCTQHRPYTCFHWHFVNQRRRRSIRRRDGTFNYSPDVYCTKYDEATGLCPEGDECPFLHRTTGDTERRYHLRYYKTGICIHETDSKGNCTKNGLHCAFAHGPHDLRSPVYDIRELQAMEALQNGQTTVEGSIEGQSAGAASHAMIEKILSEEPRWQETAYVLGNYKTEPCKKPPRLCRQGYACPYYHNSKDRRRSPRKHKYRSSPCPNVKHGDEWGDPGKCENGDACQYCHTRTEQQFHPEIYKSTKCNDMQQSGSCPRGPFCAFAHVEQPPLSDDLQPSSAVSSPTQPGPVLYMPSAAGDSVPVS
Oligonucleotide	bound/input enrichment [ratio]
GCCAAGCACUACAUGUGUCCCAUCUGUGGUGAGCGCUUCCCUUCGCUGCUGACGCUCACCGAACACAAGGUGACCCACAGCAAGAGCCUGGACACGGGCACCUGUCGCAUCUGCAAGAUG	0.0545
GCAGAAUACCCUGAUGAGUAUCAUGGCGAGUACCAGGAUGACUACCCCAGAGAUUACCAAUAUAGCGACCAAGGCAUUGAUUAUUAGAUCCACACAGAAGGAGCUCAGUAUUUAGUCCUU	1.36
GAAAUGAGGGCAAGAGCAAUUAAGGCUCUCAUGAAAGCUGGUGAUAUAAAAAAGCCAGUGUAGUUUUCUGACUUGAAUAUUAUGUGUGUUUGAAUGAAGCCAUGUCAUAUAAUUUUGUAU	0.32
UUUUAAGUGUGUCAUUGCCCUCCCCUGUGGUCAUCUGGGUACCCCUGCCCAUCCAUUGUUUUUAGAACAACCCUAACUGCUUCGGAAAACACUCCCAAGAACUCUAGUGUUGGUUUGUCU	0.731
UUGUCGAAGACUCAACGAAAGACUCCAACCGUUAUUCAUAAACAUUACCAAAUACAUCGCAUUAGACAUUUUUACAUGAGAAAAGUCAAAUUUACUCAACAGAAUUACCAUGAUAGACUU	68.5
UUUUCUUUUUCUUUUUUUUUUCUUUUUUUUGGUUCUUUCUGACUGCUUUGUAAUAAAGAUUUACCAAGUCAUUGUCAGUCUAAGUCACAAAAAUAUCCAGUUUAACAUAAAGCUGUCUGU	1.3
AUUGACCCUAUAUAAAAAAGUGGGCAUUUUGUAACAUUCCUUCAGGAAGAAUAGAAUUGUAUGCUUUUUUCUGCAUGUUUGUGAUCACUGUGAGUCUCAGAUGAUUAUUCCAGUUUUCAA	0.304

Block 6 — technique: protein binding microarray; form: double-stranded DNA, one strand shown; matrix: in vitro; tested at: not given; baseline: not given; reading: higher = stronger binding
Target: Histone acetyltransferase KAT6A, both winged helices, GST fusion (KAT6A, Homo sapiens, UniProt Q92794, residues 1-181)
Setting: 8-mer, flanks averaged, mean of 2 arrays, mostly near background
Residues (chain): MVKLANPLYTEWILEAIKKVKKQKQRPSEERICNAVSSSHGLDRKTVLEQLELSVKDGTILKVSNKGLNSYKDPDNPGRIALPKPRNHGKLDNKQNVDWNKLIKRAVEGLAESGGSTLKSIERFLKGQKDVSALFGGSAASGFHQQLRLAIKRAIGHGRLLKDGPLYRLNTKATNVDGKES
Oligonucleotide	E-score
CAAATAAG	-0.0577
GGACTCTA	-0.0791
CTCGTCAA	-0.0372
ACCGGCGA	0.181
CTGCGGAC	0.168
AGCGCGCC	0.368
GCAAACTA	-0.139
AATTCGAT	-0.0555
AAGAGATT	0.0107
ACTGCCAA	-0.0496
GTTATTGA	0.0049
CTGTATTC	-0.115
ACCTCAGA	-0.235
GACAAGCC	0.0835
CGTCCAAC	0.00504
AAGCGTCT	0.122
